Published values gathered from unrelated publications.
Each numbered part is a random draw from the data of one study; scales do not carry over between parts.

Block 1
Target: Centromere-binding protein 1, full length, N-terminal tag (CBF1, Saccharomyces cerevisiae, UniProt P17106, residues 1-351)
UniProt P17106, sequence (whole entry, looked up): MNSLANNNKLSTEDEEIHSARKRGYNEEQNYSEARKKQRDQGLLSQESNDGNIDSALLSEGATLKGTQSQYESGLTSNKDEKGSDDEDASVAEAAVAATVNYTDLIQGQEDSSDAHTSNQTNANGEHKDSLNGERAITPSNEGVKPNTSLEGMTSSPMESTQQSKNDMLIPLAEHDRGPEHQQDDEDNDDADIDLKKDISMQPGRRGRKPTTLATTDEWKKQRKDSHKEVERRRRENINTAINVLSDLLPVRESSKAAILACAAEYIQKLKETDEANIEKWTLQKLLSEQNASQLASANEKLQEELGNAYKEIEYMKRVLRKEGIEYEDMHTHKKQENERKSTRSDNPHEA
Technique: protein-binding microarray
Form: double-stranded DNA, one strand shown
Sample: in vitro
Concentration: 0.8 µM
Notes: whole 60-bp probe, no competitor
Reading: higher = stronger binding
Endpoint: fluorescence intensity
Shared flanks, not repeated: … GTCTTGATTCGCTTGACGCTGCTG
Oligonucleotide = CTACATATTTGAGTAGATCTGATGCGCAATGTCTTC; value = 524 a.u.
Oligonucleotide = CTAGGCTGATTACTTCATATGATCACTAATTAATTC; value = 691 a.u.
Oligonucleotide = CTATCTACCGAACGTCACCGCTGGTACCATGCATTC; value = 524 a.u.
Oligonucleotide = CTATTTGACACATACGTGACAACTACTTTTGATTTC; value = 626 a.u.
Oligonucleotide = TGTACGAAGCTATTACGCCTGATTATAGTAGTTAGG; value = 533 a.u.
Oligonucleotide = CTAAGAAGCGATCGTCACCTTCCATTGGGGTTATTC; value = 480 a.u.
Oligonucleotide = TGTACGAAGCTATGTGACCAGATTATAGTAGTTAGG; value = 626 a.u.
Oligonucleotide = GAATCTGCTTGGAAAAATGTCACGCGTAAAAATTAG; value = 2110 a.u.
Oligonucleotide = GAAAAGATGTATGCACCCGTGCCCCCGCTGTAGTAG; value = 563 a.u.
Oligonucleotide = GAATAGTATGGTGAGCACATGCTTTAAGTCCGATAG; value = 947 a.u.
Oligonucleotide = CTACGGAAATGGCACCATCACCTGAAAAAGAACTTC; value = 568 a.u.
Oligonucleotide = GAACTTCATTTTGATGTCACAAAAAAGTAATACTAG; value = 558 a.u.
Oligonucleotide = CCTAACTACTATAGCCACGTGACATAGCTTCGTACA; value = 15100 a.u.
Oligonucleotide = GAAATTAGTCCACCTCGCACGTGAAAAGCTGGGTAG; value = 3090 a.u.
Oligonucleotide = TGTACGAAGCTATATCATATGAATATAGTAGTTAGG; value = 519 a.u.
Oligonucleotide = CTAGCCCCACGCCCCCACGTTGTTGAGGTGTTTTTC; value = 540 a.u.
Oligonucleotide = CTACAGCTTTGCAATCATATGATATTTTCGCCCTTC; value = 659 a.u.
Oligonucleotide = GAATGAATGATATTTCACATGGTGGATGCCATCTAG; value = 531 a.u.
Oligonucleotide = CTATCGTTTGGAAGACACGTTAGGTTTAGTATCTTC; value = 556 a.u.
Oligonucleotide = GAAGGTCTTCTAATCCATCAGATGGGCCAATAATAG; value = 563 a.u.
Oligonucleotide = TGTACGAAGCTATTGATCGTGGTTATAGTAGTTAGG; value = 531 a.u.

Block 2
Target: RNA binding protein fox-1 homolog 2, RRM domain, GST-SBP tag (RBFOX2, Homo sapiens, UniProt O43251-10, residues 100-194)
Technique: RNA Bind-n-Seq
Form: RNA
Sample: in vitro
Concentration: 365 nM
Notes: natural RNA segment, single round, ends assumed
Relative to: no-protein control
Reading: higher = stronger binding
Endpoint: RBNS enrichment (R)
Shared flanks, not repeated: GGGAGUUCUACAGUCCGACGAUC … UGGAAUUCUCGGGUGCCAA
Construct (chain): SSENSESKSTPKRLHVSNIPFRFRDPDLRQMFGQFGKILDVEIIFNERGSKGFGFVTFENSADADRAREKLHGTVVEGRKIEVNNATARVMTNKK
Oligonucleotide = UAUUUGAAAACAGAAAUUGGUACCUUGCACACAUCAUCUGUAAACUGUUCAGUUUAAAAUACUGUAGAUAAUUAACCAAGGUAGAAUGACCUUGUAAUGUAACUGCUCUU; value = 1.32
Oligonucleotide = GGUCAGCUAACUCUAGCUCAGGUUUGAGAACUCCUGUUGAGAAGAAGUGUGAGAUUUCUGCUUAAGAGAAGUUGUGAAAUUGCACUCCCAUCGAGGGUUCUGAGAGUGAC; value = 0.625
Oligonucleotide = UGAAGAGAGCUGAUGGCAAGUCUUGUAGUCAUUUUGAUUUUAAUUGAAGGGUGAGCAUAACCUUGUGAACCAGCACUAGCUUGUUCCAAGCUGGAAUUUAUCUAAUCUAU; value = 0.337
Oligonucleotide = UUCCGAUGAAUUCUUAUCCCCUGCCCCUUCCUUUAAAAAACUUAGUGACAAAAUAGACAAUUUGCACAUCUUGGCUAUGUAAUUCUUGUAAUUUUUAUUUAGGAAGUGUU; value = 1.71
Oligonucleotide = GACACUCGAGCCUCUGCUCUCACCUUGCCCUGUUUGGGUUUUUAUCAGCCGUGUCUGCAUUGGAGCCUCACUGCAGUGUUCCUGGUGGCUCCUCUUAACUCCUGCUGCUG; value = 0.325
Oligonucleotide = UAAGGCUGCACGCCUCCAAUCCCCCAAAGGGUAGGAUCCUGGCUGGGUCCAGGGUUCCUCUGAUUUAUUUGGUUUUGUUGUGUUGUGUUGUGUUUUUCUUUUGGCUAAAC; value = 0.415
Oligonucleotide = CAGCUUCACAGUCGCCUCAUCUCCUAAGCACUCCUUUCCCCUGCUGUCCCCUUCGACCCUCAGCCCUCUGGUGCCGCUCUGCCCGAUGCACAGCCACCUCAGCCAGCCCC; value = 0.403
Oligonucleotide = UAAAAUGGAUGUUUAGUAAAGGAACUGGUUCUCAGUUAUGUUUACAGCACUUGGAAUUGUGUGUUCUUGUACAUUUUGUAUUUUAAAACCUUUUAUGGGAGUGCAGUGCU; value = 1.49
Oligonucleotide = CUUGUGAGUGCCAAUGUAUAAUGCAGUAAAGACUACAUGGAAACACAAACUCAGUCCUUAAAACCCCAGGAGUUGAGGGGAAGUGUUGGCACAGUGAUGGCCUGUGUCAC; value = 0.478
Oligonucleotide = CUCAUGUAACGGUGGUACAUAAUAUCAAAUCAAAAGUUAUCUGUGACUAUAUAUAGGGAUCACAAAGUGUCACAUGUUAGAAUGCUGACCUUCCACAUGGGGUUAUUGUG; value = 0.362
Oligonucleotide = UUCAGGUGGUAGCCCUGGUUGUGCUGGGCGGCUAGUGAUGAUGCUGUGCUCUGCCAUCCAUCCAGACAGAAACCAGCCCCAACGCCUCCAGUUCUGUUUUUGCAUCGUGA; value = 1.23
Oligonucleotide = GCACAUCACUUCCUUCCUGAAAGCCUAAGAGUGUGUAUGUUUGUGUAUGCACAGAGCAGACAGACUAAUGGAUCUCUGUUUUCUGCCAGUCAUCAGUGUGCCCUUGAAGC; value = 0.645

Block 3
Target: Sal-like protein 4, full length isoform A (SALL4, Homo sapiens, UniProt Q9UJQ4, residues 1-1053)
UniProt Q9UJQ4, sequence (whole entry, looked up): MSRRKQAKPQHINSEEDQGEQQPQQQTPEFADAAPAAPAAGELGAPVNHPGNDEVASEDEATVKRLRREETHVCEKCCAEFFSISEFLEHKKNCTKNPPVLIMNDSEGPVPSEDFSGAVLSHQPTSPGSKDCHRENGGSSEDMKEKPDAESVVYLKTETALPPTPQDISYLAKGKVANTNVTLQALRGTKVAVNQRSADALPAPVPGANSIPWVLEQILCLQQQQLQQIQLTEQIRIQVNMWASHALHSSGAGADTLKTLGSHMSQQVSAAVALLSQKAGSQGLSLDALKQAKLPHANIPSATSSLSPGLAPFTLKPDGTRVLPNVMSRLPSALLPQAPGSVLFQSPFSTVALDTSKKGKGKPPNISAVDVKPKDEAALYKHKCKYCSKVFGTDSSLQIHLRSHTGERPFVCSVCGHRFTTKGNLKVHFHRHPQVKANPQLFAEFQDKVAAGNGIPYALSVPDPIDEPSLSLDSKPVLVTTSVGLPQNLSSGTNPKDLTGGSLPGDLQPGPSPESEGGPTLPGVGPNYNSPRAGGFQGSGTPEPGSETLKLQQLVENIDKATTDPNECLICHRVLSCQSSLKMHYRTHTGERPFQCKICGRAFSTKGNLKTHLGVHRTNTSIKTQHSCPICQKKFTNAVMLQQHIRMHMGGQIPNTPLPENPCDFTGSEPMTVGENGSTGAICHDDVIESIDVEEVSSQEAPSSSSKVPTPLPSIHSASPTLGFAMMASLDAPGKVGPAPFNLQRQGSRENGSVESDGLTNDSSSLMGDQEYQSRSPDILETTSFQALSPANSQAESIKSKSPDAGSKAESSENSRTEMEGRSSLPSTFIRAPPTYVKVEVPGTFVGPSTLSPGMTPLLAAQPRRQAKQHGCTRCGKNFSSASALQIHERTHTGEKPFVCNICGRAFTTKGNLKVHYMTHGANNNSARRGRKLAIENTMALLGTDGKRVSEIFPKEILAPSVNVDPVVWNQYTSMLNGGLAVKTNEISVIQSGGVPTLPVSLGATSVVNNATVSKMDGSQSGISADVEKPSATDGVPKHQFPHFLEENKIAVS
Technique: universal PBM
Form: double-stranded DNA, one strand shown
Sample: in vitro
Concentration: 600 nM
Notes: 8-mer, flanks averaged, mean of replicates
Reading: higher = stronger binding
Endpoint: E-score
Oligonucleotide = AATGCTCA; value = 0.125
Oligonucleotide = ACCTAAAC; value = -0.0273
Oligonucleotide = CTGCCCGA; value = -0.266
Oligonucleotide = CGGTAGAA; value = -0.188
Oligonucleotide = CCCGTACC; value = -0.294
Oligonucleotide = ACCCAGTA; value = -0.116
Oligonucleotide = TAAGATTA; value = 0.267
Oligonucleotide = CGGGTCAA; value = -0.278
Oligonucleotide = GGCAACAC; value = 0.0215
Oligonucleotide = CCGAGAAC; value = -0.14
Oligonucleotide = AGAGTCTA; value = 0.179
Oligonucleotide = GGATGTGA; value = 0.0132
Oligonucleotide = CGTTGTTA; value = 0.16
Oligonucleotide = TAGGATAA; value = 0.167
Oligonucleotide = GATGCCTA; value = 0.0104
Oligonucleotide = AAGTGCTA; value = 0.196
Oligonucleotide = ACCGTTAA; value = 0.125
Oligonucleotide = TACTGATA; value = 0.211
Oligonucleotide = ATGAGATC; value = 0.106
Oligonucleotide = ACCAGGAG; value = -0.225

Block 4
Target: Histone acetyltransferase KAT6A, both winged helices, GST fusion (KAT6A, Homo sapiens, UniProt Q92794, residues 1-181)
Technique: protein binding microarray
Form: double-stranded DNA, one strand shown
Sample: in vitro
Concentration: not given
Notes: 8-mer, flanks averaged, mean of 2 arrays, mostly near background
Relative to: not given
Reading: higher = stronger binding
Endpoint: E-score
Residues (chain): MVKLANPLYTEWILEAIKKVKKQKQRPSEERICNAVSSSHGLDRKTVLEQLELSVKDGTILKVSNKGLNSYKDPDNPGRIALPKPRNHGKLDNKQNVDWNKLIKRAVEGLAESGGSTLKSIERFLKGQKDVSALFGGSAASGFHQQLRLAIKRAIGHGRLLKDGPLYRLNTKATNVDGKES
Oligonucleotide = GTACGAGA; value = -0.0161
Oligonucleotide = ATGTAGAA; value = -0.12
Oligonucleotide = GCTCTTCA; value = -0.0586
Oligonucleotide = GCCGAACC; value = 0.117
Oligonucleotide = ACGAGAAT; value = -0.109
Oligonucleotide = CGGTCACG; value = 0.212
Oligonucleotide = AAATATCC; value = 0.0137
Oligonucleotide = CAGGCCAG; value = -0.0807
Oligonucleotide = CTTTAAGC; value = -0.0488
Oligonucleotide = GGCTTCAA; value = -0.0169
Oligonucleotide = AATAAAGC; value = -0.0165
Oligonucleotide = CACTGACG; value = 0.0163
Oligonucleotide = AATTCAAT; value = -0.0138
Oligonucleotide = ATCCGTAA; value = 0.219
Oligonucleotide = CCTGTATA; value = -0.0638
Oligonucleotide = AAGCAGTA; value = -0.234
Oligonucleotide = CCGGCTTC; value = 0.223
Oligonucleotide = GAGTAGAC; value = 0.00248
Oligonucleotide = CACACTGA; value = -0.185
Oligonucleotide = ACATAGGT; value = -0.158
Oligonucleotide = ATAGAGAT; value = -0.0453
Oligonucleotide = CCTGCGCC; value = 0.122
Oligonucleotide = AACTGCCG; value = 0.186
Oligonucleotide = AGATTAAG; value = -0.101
Oligonucleotide = AGCTATCG; value = -0.0773
